Experimental data of several laboratories.
Protocols differ between the studies behind these lines.
PTGS2: Prostaglandin G/H synthase 2 (PTGS2, Homo sapiens, UniProt P35354)
Chain of UniProt P35354 (whole entry, looked up): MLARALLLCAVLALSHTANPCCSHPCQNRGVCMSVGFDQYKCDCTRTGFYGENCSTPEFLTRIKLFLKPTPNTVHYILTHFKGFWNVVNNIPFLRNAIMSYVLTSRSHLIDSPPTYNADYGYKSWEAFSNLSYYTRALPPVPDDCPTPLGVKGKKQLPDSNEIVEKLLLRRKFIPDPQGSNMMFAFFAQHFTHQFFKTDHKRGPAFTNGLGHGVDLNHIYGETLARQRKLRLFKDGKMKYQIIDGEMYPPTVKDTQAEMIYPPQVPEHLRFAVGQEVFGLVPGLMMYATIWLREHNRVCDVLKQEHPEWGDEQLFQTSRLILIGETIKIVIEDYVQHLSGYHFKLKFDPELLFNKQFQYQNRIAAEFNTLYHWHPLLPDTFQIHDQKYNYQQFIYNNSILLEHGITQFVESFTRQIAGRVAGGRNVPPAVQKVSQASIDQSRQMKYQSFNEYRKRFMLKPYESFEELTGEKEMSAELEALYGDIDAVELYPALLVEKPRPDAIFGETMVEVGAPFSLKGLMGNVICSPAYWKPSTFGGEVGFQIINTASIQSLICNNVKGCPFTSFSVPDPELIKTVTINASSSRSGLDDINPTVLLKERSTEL
HDAC8: Histone deacetylase 8 (HDAC8, Homo sapiens, UniProt Q9BY41)
Chain of UniProt Q9BY41 (whole entry, looked up): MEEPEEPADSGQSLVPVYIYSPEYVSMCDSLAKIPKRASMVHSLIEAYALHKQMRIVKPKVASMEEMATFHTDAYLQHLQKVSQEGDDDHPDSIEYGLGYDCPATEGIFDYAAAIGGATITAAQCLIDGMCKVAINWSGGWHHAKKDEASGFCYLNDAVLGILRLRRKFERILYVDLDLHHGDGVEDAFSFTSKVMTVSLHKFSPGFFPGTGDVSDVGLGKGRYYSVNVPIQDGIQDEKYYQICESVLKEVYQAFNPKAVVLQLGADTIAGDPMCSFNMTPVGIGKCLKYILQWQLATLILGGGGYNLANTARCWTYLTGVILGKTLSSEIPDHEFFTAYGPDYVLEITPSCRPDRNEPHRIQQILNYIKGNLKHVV
SCN1A: Sodium channel protein type 1 subunit alpha (SCN1A, Homo sapiens, UniProt P35498)
SLC6A4: Sodium-dependent serotonin transporter (SLC6A4, Homo sapiens, UniProt P31645)
Chain of UniProt P31645 (whole entry, looked up): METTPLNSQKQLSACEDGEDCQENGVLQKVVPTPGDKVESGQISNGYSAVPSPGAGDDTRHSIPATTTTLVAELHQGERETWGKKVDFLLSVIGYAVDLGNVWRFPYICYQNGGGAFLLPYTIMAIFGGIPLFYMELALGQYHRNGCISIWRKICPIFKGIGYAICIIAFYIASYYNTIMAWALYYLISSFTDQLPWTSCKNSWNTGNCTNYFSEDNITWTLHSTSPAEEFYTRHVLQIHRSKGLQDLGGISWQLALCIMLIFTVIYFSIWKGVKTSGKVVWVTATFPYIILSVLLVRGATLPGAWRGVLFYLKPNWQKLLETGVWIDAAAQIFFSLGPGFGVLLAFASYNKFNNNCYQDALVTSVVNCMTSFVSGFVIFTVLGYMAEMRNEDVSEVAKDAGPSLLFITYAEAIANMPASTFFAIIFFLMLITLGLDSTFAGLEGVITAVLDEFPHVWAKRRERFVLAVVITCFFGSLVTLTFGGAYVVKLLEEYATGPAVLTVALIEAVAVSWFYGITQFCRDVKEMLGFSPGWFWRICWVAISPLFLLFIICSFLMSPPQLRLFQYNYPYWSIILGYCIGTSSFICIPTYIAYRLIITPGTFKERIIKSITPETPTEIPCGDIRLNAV
HDAC1: Histone deacetylase 1 (HDAC1, Homo sapiens, UniProt Q13547)
Chain of UniProt Q13547 (whole entry, looked up): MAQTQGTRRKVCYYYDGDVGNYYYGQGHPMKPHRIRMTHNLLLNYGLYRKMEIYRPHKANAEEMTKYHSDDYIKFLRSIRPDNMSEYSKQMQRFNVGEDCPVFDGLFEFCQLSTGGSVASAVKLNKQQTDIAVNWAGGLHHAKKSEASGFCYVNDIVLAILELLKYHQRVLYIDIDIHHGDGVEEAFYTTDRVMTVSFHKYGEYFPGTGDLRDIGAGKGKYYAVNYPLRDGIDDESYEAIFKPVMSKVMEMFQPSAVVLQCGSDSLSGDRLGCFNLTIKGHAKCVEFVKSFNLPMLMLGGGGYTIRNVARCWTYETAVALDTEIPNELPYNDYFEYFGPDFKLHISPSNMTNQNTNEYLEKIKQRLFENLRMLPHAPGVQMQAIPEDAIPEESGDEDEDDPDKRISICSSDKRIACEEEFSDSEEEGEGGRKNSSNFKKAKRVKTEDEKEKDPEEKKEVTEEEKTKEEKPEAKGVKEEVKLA
USP51: Ubiquitin carboxyl-terminal hydrolase 51 (USP51, Homo sapiens, UniProt Q70EK9)
Chain of UniProt Q70EK9 (whole entry, looked up): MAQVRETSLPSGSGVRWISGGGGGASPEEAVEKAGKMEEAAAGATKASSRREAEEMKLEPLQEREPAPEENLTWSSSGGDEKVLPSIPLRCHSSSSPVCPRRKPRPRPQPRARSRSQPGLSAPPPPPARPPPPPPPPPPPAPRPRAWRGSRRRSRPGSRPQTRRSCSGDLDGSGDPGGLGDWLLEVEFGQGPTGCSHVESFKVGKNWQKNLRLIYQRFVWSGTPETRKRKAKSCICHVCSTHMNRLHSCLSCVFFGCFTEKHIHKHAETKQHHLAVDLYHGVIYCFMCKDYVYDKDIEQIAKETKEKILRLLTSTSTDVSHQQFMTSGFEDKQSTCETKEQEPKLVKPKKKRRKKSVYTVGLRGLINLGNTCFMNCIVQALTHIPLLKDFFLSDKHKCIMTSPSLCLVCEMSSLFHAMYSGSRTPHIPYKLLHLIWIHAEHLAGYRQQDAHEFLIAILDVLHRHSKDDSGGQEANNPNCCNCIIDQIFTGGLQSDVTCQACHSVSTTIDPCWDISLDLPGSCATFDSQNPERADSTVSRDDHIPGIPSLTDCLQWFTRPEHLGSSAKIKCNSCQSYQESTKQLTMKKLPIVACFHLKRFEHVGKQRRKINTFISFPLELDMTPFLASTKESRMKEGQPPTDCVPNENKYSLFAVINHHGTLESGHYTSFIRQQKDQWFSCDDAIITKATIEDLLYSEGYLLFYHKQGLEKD
PDE10A: cAMP and cAMP-inhibited cGMP 3',5'-cyclic phosphodiesterase 10A (PDE10A, Homo sapiens, UniProt Q9Y233)
Chain of UniProt Q9Y233 (whole entry, looked up): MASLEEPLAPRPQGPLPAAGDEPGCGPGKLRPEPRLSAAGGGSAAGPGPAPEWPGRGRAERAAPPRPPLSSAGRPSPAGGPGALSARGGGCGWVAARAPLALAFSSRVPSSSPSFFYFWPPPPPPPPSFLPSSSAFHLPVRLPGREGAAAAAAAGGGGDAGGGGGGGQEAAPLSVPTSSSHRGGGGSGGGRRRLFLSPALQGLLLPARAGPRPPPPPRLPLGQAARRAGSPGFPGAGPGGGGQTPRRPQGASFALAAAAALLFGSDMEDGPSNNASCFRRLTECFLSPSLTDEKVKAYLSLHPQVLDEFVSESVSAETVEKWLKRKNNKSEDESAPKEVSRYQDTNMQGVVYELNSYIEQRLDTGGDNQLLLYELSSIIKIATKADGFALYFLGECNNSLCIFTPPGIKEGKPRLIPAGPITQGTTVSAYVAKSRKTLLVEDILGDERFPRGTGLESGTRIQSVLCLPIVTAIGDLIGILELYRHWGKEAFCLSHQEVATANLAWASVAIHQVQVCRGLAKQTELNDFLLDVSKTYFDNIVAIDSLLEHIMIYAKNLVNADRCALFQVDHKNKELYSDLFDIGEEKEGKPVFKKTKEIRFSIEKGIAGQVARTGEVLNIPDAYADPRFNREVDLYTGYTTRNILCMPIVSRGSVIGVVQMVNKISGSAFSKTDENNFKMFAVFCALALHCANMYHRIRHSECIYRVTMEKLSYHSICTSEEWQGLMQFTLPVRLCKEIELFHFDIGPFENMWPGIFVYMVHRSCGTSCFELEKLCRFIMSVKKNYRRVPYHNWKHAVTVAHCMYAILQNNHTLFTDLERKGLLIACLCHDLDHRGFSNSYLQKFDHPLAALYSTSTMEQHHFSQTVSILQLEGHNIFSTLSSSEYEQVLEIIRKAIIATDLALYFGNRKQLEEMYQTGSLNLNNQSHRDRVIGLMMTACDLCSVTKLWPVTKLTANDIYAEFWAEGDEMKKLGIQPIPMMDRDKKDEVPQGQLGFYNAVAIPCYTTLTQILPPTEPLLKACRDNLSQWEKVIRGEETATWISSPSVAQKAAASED
SIRT6: NAD-dependent protein deacylase sirtuin-6 (SIRT6, Homo sapiens, UniProt Q8N6T7)
Chain of UniProt Q8N6T7 (whole entry, looked up): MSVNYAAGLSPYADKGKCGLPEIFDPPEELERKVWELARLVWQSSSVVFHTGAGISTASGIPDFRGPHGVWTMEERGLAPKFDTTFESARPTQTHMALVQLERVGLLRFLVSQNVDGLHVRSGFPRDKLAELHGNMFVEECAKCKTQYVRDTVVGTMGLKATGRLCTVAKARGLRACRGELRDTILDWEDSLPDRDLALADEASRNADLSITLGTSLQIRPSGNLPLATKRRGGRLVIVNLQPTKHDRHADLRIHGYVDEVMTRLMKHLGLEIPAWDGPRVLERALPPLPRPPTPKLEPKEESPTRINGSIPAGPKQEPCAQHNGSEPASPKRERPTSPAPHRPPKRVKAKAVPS
DHFR: Dihydrofolate reductase (DHFR, Homo sapiens, UniProt P00374)
Chain of UniProt P00374 (whole entry, looked up): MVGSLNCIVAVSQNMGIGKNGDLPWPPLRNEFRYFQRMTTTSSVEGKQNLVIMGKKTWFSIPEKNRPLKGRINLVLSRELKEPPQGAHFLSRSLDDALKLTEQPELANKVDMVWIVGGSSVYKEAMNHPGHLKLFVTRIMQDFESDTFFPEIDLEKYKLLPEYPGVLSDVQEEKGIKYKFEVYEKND
Chain of UniProt P20794 (whole entry, looked up): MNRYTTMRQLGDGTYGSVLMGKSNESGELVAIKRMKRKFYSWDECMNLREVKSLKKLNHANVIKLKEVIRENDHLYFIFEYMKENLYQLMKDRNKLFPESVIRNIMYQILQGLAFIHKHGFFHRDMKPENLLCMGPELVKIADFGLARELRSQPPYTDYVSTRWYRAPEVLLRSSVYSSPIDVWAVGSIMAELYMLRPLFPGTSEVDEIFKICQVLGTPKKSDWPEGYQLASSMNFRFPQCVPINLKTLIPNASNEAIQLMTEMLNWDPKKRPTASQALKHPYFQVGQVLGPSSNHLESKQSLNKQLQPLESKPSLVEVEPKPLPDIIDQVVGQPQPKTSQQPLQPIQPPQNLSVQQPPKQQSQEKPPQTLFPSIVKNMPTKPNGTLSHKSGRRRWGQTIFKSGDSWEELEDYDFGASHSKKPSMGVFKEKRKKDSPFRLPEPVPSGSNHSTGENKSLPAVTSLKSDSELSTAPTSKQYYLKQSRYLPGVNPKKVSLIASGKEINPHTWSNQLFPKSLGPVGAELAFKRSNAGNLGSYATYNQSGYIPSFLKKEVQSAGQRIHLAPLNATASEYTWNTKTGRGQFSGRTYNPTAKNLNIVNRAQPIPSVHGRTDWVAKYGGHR

CNc1ncc2c(/C=C/C(=O)N3CCC(OC)CC3)nn(Cc3cccc(C(F)(F)F)c3)c2n1
remaining activity (Mitogen-activated protein kinase kinase kinase 9 (MAP3K9, Homo sapiens, UniProt P80192); enzyme activity, inhibitor, radiometric; 1 µM): 102%

COc1cc(-c2cc(=O)c3c(O)cc(O)cc3o2)ccc1O
inhibition (PTGS2; enzyme activity, inhibitor; 0.98 µg/mL): 6.19%

Cc1cc(C(C)(C)C)ccc1OS(=O)(=O)Oc1cccc(C(=O)NO)c1C
inhibition (HDAC8; enzyme activity, inhibitor, fluorescence; 10 µM): 17%

Cn1c(=O)c2[nH]cnc2n(C)c1=O
inhibition (SCN1A; ion current, inhibitor, patch clamp; 10 µM): -4.66%

CCOC(=O)[C@@]12C[C@@H]1[C@@H](n1cnc3c(NCCCCCc4ccccc4)nc(C#Cc4ccccc4)nc31)[C@H](O)[C@@H]2O
inhibition (SLC6A4; ligand displacement, radioligand; 10 µM): 17%

Cc1c(OS(=O)(=O)Oc2ccc(C(C)(C)C)cc2)cccc1C(=O)NO
inhibition (HDAC8; enzyme activity, inhibitor, fluorescence; 10 µM): 11%

COc1ccc(-c2cc(=O)c3c(O)cc(O[C@@H]4O[C@H](CO)[C@@H](O)[C@H](O)[C@H]4O)cc3o2)cc1O
inhibition (PTGS2; enzyme activity, inhibitor; 1.95 µg/mL): 100%

CC(C)c1cccc(OS(=O)(=O)Oc2cc(F)cc(C(=O)NO)c2)c1
inhibition (HDAC1; enzyme activity, inhibitor, fluorescence; 10 µM): 9%

N=C(N)NCCC[C@H](N)C(=O)O
inhibition (USP51; enzyme activity, inhibitor; 5 µM): 0%

COc1cc(-c2cncc3c2CN(C)Cc2cc(N4CCNCC4)ccc2-3)cc(OC)c1OC
remaining activity (Serine/threonine-protein kinase MAK (MAK, Homo sapiens, UniProt P20794); enzyme activity, inhibitor; 1 µM): 109%

COc1ccc(Cc2ncnc3ccccc23)cc1OC
inhibition (PDE10A; enzyme activity, inhibitor, FP; 0.1 µM): 21%

C=CC(=O)N1CCC(COCC(=O)N2CCN(c3nc(-c4cnc(N)nc4C(F)F)nc(N4CCOC[C@@H]4C)n3)CC2)CC1
remaining binding (Tyrosine-protein kinase ABL1, phosphorylated (ABL1, Homo sapiens, UniProt P00519, E255K); binding, competition with immobilised ligand; 1 µM): 100%

CC(C)c1[nH]c2nc(N)nn2c(=O)c1Cc1ccc(Cl)c(Br)c1
inhibition (C-C chemokine receptor type 5 (CCR5, Homo sapiens, UniProt P51681); β-arrestin recruitment, antagonist; 1 µM): 84%

N#Cc1ccc(CONC(=O)c2ccc(C(N)=O)cc2)cc1
inhibition (SIRT6; enzyme activity, inhibitor, fluorescence; 100 µM): 75.4%

CC1=C(/C=C/C(C)=C/C=C/C(C)=C/C=C/C=C(C)/C=C/C=C(C)/C=C/C2=C(C)CCCC2(C)C)C(C)(C)CCC1
inhibition (USP51; enzyme activity, inhibitor; 5 µM): 41%

Cc1cc(OS(=O)(=O)Oc2cccc(C(C)C)c2)cc(C(=O)NO)c1
inhibition (HDAC1; enzyme activity, inhibitor, fluorescence; 10 µM): 11%

COC(=O)c1ccc(O)cc1
inhibition (PTGS2; enzyme activity, inhibitor; 0.12 µg/mL): 0%

C[C@H](O)C(=O)O
inhibition (USP51; enzyme activity, inhibitor; 5 µM): 28%

C=C[C@@]1(C)C=C2CC[C@@H]3[C@](C)(CCC[C@@]3(C)C(=O)O)[C@H]2CC1
inhibition (PTGS2; enzyme activity, inhibitor; 1.95 µg/mL): 26.1%

CN1CC(Oc2cnc(C#N)cc2-c2ccn3nc(NC(=O)C4CC4)cc3c2)C1
inhibition (Serine/threonine-protein kinase PLK3 (PLK3, Homo sapiens, UniProt Q9H4B4); enzyme activity, inhibitor; 1 µM): 1%

COc1ccc(NC(=S)NN=Cc2ccc(N3CCCCC3)cc2)cc1
inhibition (DHFR; enzyme activity, inhibitor; 500 µM): 75.9%

NC/C(=C\F)COc1cccc(Cn2c(=S)[nH]c(=O)c3[nH]cnc32)c1
inhibition (Delta-type opioid receptor (OPRD1, Homo sapiens, UniProt P41143); ligand displacement, radioligand; 10 µM): < 50%

O=C(/C=C/c1cccc(OS(=O)(=O)Oc2ccc(C(F)(F)F)cc2)c1)NO
inhibition (Histone deacetylase 5 (HDAC5, Homo sapiens, UniProt Q9UQL6); enzyme activity, inhibitor, fluorescence; 10 µM): 22%

CCOC(=O)C12CC1C(n1ccc3c(NCCCc4ccccc4)nc(C#Cc4ccc(Cl)s4)nc31)C(O)C2O (centres unmarked)
inhibition (SLC6A4; ligand displacement, radioligand; 10 µM): -15%

O=C1NC(=O)C(c2ccccc2)(c2ccccc2)N1
inhibition (SCN1A; ion current, inhibitor, patch clamp; 10 µM): 5.75%

COc1cc2c(c(OC)c1OC)-c1ccc(OC)c(=O)cc1[C@@H](NC(C)=O)CC2
inhibition (USP51; enzyme activity, inhibitor; 5 µM): 0%

O=C(NO)c1cccc(OS(=O)(=O)Oc2ccc([N+](=O)[O-])cc2)c1
inhibition (HDAC1; enzyme activity, inhibitor, fluorescence; 5 µM): 30%

CCc1nn(C)c2nc(-c3ccc(C(=O)O)cc3)nc(NCc3ccc(F)cc3)c12
inhibition (cGMP-inhibited 3',5'-cyclic phosphodiesterase 3A (PDE3A, Homo sapiens, UniProt Q14432); enzyme activity, inhibitor, radiometric; 10 µM): 27.4%

O=[N+]([O-])c1cccc(NC(=S)NN=Cc2ccc(N3CCCCC3)cc2)c1
inhibition (DHFR; enzyme activity, inhibitor; 500 µM): 90.8%

CC[C@H](C)[C@H](NC(=O)[C@H](CCC(N)=O)NC(=O)[C@H](CC(C)C)NC(=O)[C@H](CCSC)NC(=O)[C@H](CCCCN)NC(=O)[C@H](CO)NC(=O)[C@H](CO)NC(=O)[C@H](CCSC)NC(=O)[C@H](CC(C)C)NC(=O)[C@H](CC(N)=O)NC(=O)[C@@H](NC(=O)[C@@H](NC(=O)[C@H](CO)NC(=O)[C@H](CC(C)C)NC(=O)[C@H](CS)NC(=O)[C@H](CCCNC(=N)N)NC(=O)[C@H](CC(=O)O)NC(=O)[C@H](Cc1c[nH]c2ccccc12)NC(=O)[C@H](Cc1ccccc1)NC(=O)[C@H](C)NC(=O)[C@H](CCC(=O)O)NC(=O)[C@@H](N)CCCCN)C(C)C)[C@@H](C)CC)C(=O)N[C@@H](CC(N)=O)C(=O)N[C@@H](C)C(=O)O
inhibition (Cyclin-dependent kinase 5, with p35 (CDK5, Homo sapiens, UniProt Q00535); enzyme activity, inhibitor, radiometric; 50 µM): 10%

C[N+](C)(C)C[C@H](O)CC(=O)[O-]
inhibition (USP51; enzyme activity, inhibitor; 5 µM): 0%

CC(=O)Nc1ccc(C(=O)NOCc2ccccc2)cc1
inhibition (SIRT6; enzyme activity, inhibitor, fluorescence; 100 µM): 46%

CCCCCCCCCCCCCCCCCC(=O)O
inhibition (USP51; enzyme activity, inhibitor; 5 µM): 13%

CC[C@H](C)[C@H](NC(=O)[C@H](CCC(N)=O)NC(=O)[C@@H](NC(=O)[C@H](CCSC)NC(=O)[C@H](CCCCN)NC(=O)[C@H](CO)NC(=O)[C@@H](NC(=O)[C@H](CCSC)NC(=O)[C@H](CC(C)C)NC(=O)[C@H](CC(N)=O)NC(=O)[C@@H](NC(=O)[C@@H](NC(=O)[C@H](CO)NC(=O)[C@H](CC(C)C)NC(=O)[C@H](C)NC(=O)[C@H](CCCNC(=N)N)NC(=O)[C@H](CCC(=O)O)NC(=O)[C@H](Cc1ccc(O)cc1)NC(=O)[C@H](Cc1ccccc1)NC(=O)[C@H](C)NC(=O)[C@H](CC(N)=O)NC(=O)[C@@H](N)CCCCN)[C@@H](C)CC)[C@@H](C)CC)[C@@H](C)O)C(C)C)C(=O)N[C@@H](CC(N)=O)C(=O)N[C@H](C(=O)O)C(C)C
inhibition (Glycogen synthase kinase-3 beta (GSK3B, Homo sapiens, UniProt P49841); enzyme activity, inhibitor, radiometric; 100 µM): -15%

COc1ccc2ncnc(Cc3ccc(OC)c(OC)c3)c2c1
inhibition (PDE10A; enzyme activity, inhibitor, FP; 0.1 µM): 25%

NC(=O)c1ccc(C(=O)NOCc2ccc(Sc3cccc(C(F)(F)F)c3)c(C(F)(F)F)c2)cc1
inhibition (SIRT6; enzyme activity, inhibitor, fluorescence; 100 µM): 100%

O=c1cc(-c2ccc(O)c(O)c2)oc2cc(O)cc(O)c12
inhibition (PTGS2; enzyme activity, inhibitor; 7.81 µg/mL): 100%

CC(C)c1ccc(OS(=O)(=O)Oc2cc(F)cc(C(=O)NO)c2)cc1
inhibition (HDAC1; enzyme activity, inhibitor, fluorescence; 5 µM): 6%

C[N+](C)(C)CC(=O)O
inhibition (USP51; enzyme activity, inhibitor; 5 µM): 29%

COc1cc([C@H]2OC[C@H]3[C@@H]2CO[C@@H]3c2cc(OC)c(O)c(OC)c2)cc(OC)c1O
inhibition (PTGS2; enzyme activity, inhibitor; 31.25 µg/mL): 100%

Cn1c(=O)c2[nH]cnc2n(C)c1=O
inhibition (USP51; enzyme activity, inhibitor; 5 µM): 0%

Cc1cc(C(C)(C)C)ccc1OS(=O)(=O)Oc1cccc(C(=O)NO)c1
inhibition (HDAC1; enzyme activity, inhibitor, fluorescence; 10 µM): 24%

CNCCCC12CCC(c3ccccc31)c1ccccc12
inhibition (SCN1A; ion current, inhibitor, patch clamp; 30 µM): 76.6%

COc1ccc2ncnc(Cc3cccc(-c4ccccc4)c3)c2c1
inhibition (PDE10A; enzyme activity, inhibitor, FP; 0.1 µM): 0%

For quick reference, copied from above:
CNc1ncc2c(/C=C/C(=O)N3CCC(OC)CC3)nn(Cc3cccc(C(F)(F)F)c3)c2n1
remaining activity (Mitogen-activated protein kinase kinase kinase 9 (MAP3K9, Homo sapiens, UniProt P80192); enzyme activity, inhibitor, radiometric; 1 µM): 102%

COc1cc(-c2cc(=O)c3c(O)cc(O)cc3o2)ccc1O
inhibition (PTGS2; enzyme activity, inhibitor; 0.98 µg/mL): 6.19%

Cc1cc(C(C)(C)C)ccc1OS(=O)(=O)Oc1cccc(C(=O)NO)c1C
inhibition (HDAC8; enzyme activity, inhibitor, fluorescence; 10 µM): 17%

Cn1c(=O)c2[nH]cnc2n(C)c1=O
inhibition (SCN1A; ion current, inhibitor, patch clamp; 10 µM): -4.66%

CCOC(=O)[C@@]12C[C@@H]1[C@@H](n1cnc3c(NCCCCCc4ccccc4)nc(C#Cc4ccccc4)nc31)[C@H](O)[C@@H]2O
inhibition (SLC6A4; ligand displacement, radioligand; 10 µM): 17%

Cc1c(OS(=O)(=O)Oc2ccc(C(C)(C)C)cc2)cccc1C(=O)NO
inhibition (HDAC8; enzyme activity, inhibitor, fluorescence; 10 µM): 11%
